Measurements of several laboratories.
Numbered parts are unrelated; each lists some results of a single study. Changes are numbered by the printed parent chain.

Series 1
Target: Interferon regulatory factor 3, full length, phosphomimetic (IRF3, Homo sapiens, UniProt Q14653, residues 1-427, S386D/S396D/S398D/S402D/T404D/S405D)
Technique: protein-binding microarray
Form: double-stranded DNA, one strand shown
Medium: in vitro
Tested at: 2540 nM top
Setting: 60-bp whole probe
Together with: salmon DNA 0.4 mg/ml
Reference: random background probes
Direction: higher = stronger binding
All sequences stand within: GCCTAGCAC … GTCTTGATTCGCTTGACGCTGCTG
Residues (chain): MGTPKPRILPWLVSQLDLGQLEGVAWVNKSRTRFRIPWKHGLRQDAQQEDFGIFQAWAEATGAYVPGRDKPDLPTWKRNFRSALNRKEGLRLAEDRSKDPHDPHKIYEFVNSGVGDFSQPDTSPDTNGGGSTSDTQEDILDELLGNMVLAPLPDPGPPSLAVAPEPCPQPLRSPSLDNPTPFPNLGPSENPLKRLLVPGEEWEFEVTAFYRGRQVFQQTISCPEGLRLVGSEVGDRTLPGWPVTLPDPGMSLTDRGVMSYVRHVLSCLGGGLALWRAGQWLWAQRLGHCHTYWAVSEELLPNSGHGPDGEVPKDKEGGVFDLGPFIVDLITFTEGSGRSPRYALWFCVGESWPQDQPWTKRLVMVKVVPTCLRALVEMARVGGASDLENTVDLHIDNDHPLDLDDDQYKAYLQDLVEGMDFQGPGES
Sequence	fitted relative affinity [z-score]
GACGATATCGGACTGGGGACGTGCTAG	0.0735
TCATGCCTATTTTTCCCACTGTGCTAG	0.448
TTAGGTTTCCTTTCCTTTTAGTGCTAG	11.3
AACGGTATCGACACTGGGGACGTGCTA	0.627
GAACTTCTGCATTACAGCTAGTGCTAG	0.109
TTAGGTTTCGGTATCAGTTAGTGCTAG	8.38
GACGCACTGAGACTGGAGACGTGCTAG	-0.323
GGGTGTGTGAGTGTGTGTGCGTGCTAG	-1.07
TCATGTATTTGTCCCTAACTGTGCTAG	0.621
GACGGACCGGGGTTTCGGGACGTGCTA	0.782
GACGATTCCAGTATCGAGACGTGCTAG	1.31
TTAGGACTGGGGTTTTGGTTAGTGCTA	-0.654
TTAGCACTGCTTATCCTTTAGTGCTAG	-0.106
GTGTTCTGGGCAGCAGAGGGGTGCTAG	-0.63
CAGCCTCTGCATTCCCTCAGGTGCTAG	-0.31
AAATTCTGATATAATTCAAAGTGCTAG	0.797
TTAGATTCCAGTTTCGACTAGTGCTAG	3.64
TTAGAACTAAGTTTCGATTAGTGCTAG	3.27
CTCTTCTTTTTTTTCTTTAAGTGCTAG	2.15
GACGGACAGGACTTTCGGGACGTGCTA	0.262
TTAGGTCTCGCTCTCGGTTAGTGCTAG	0.375

Series 2
Target: Prothrombin, mature alpha-thrombin (F2, Homo sapiens, UniProt P00734)
Technique: aptamer microarray, sandwich
Form: DNA with 2'F-ANA
Medium: in vitro
Tested at: 200 nM
Setting: whole 15-mer aptamer, many near background
Together with: Cy3 exosite-II aptamer, 400 nM
Direction: higher = stronger binding
Sequence: GGTTGGTGTGGTTGG
Modification	mean fluorescence intensity [a.u.]
2'F-ANA at 1 3 4 6 7 8 13	142
2'F-ANA at 1 2 3 5 11 12 15	98.2
2'F-ANA at 1 3 8 9 10 11 12 13 14	60.9
2'F-ANA at 3 4 5 14	50.9
2'F-ANA at 1 3 4 5 6 7 10 11 12 13	47.6
2'F-ANA at 2 6 7 8 10 13 14 15	83.9
2'F-ANA at 3 4 8 9 10 11 13 14 15	171
2'F-ANA at 3 4 5 7 9 10 12	61.4
2'F-ANA at 2 3 5 6 7 9 12 13 14	51.7
2'F-ANA at 1 3 6 8 12 14 15	113
2'F-ANA at 2 3 5 7 8 9	113
2'F-ANA at 2 4 5 6 7 8 12 14	51
2'F-ANA at 1 2 3 4 6 7 11 15	127
2'F-ANA at 1 2 3 4 5 6 7 8 9 10 14	48.6
2'F-ANA at 1 2 3 5 6 7 8 9 11 12 15	98.5
2'F-ANA at 2 3 8 9 10 13 14	287

Series 3
Target: Histone acetyltransferase KAT6A, winged helix 2, GST fusion (KAT6A, Homo sapiens, UniProt Q92794, residues 85-181)
Technique: protein binding microarray
Form: double-stranded DNA, one strand shown
Medium: in vitro
Tested at: not given
Setting: 8-mer, flanks averaged, mean of 2 arrays, mostly near background
Reference: not given
Direction: higher = stronger binding
Construct (chain): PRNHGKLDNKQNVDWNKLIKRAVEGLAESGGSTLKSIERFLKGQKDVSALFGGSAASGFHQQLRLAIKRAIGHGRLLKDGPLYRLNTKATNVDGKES
Sequence	E-score
AAGGATGA	-0.261
CCGACTGA	0.104
TATTGGGA	-0.065
ATATATCA	-0.024
AGCGGTTA	0.00062
ACGTACTC	-0.293
CTCCAAAA	0.0614
CGGAACGC	0.146
AGGTCACA	-0.0823
ACTGATAC	-0.0517
ATCCATAG	-0.186
GACTAGAC	-0.121
ACTCTCTC	-0.0644
ACTATTGG	-0.144
CCTACACG	-0.0672
AGCTTTAG	-0.0301
CGTAAGTA	-0.216
GGGGACAC	0.0916
GACCCGGC	0.139
AAGGCCGA	0.1
GTTCCATA	-0.191
AAAACCAG	0.108
CAGTCACC	-0.0328
GCACCACA	-0.18
GTTTGCAA	0.109

Series 4
Target: ABI1, truncated, D143A, DHFR fusion (Arabidopsis thaliana, UniProt P49597)
Technique: DHFR PCA, dose-response
Medium: yeast
Setting: Hill fit, not affinity
Together with: (+)-ABA, dose series
Direction: lower = more sensitive
Starting sequence: PYL1, truncated, DHFR fusion (Arabidopsis thaliana, UniProt Q8VZS8); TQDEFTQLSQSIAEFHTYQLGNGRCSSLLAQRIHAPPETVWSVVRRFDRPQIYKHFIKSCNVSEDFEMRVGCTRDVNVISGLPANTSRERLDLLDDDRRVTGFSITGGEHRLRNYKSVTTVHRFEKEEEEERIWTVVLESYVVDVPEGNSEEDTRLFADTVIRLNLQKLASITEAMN
Change	ABA EC50 [µM]
N61K	3.2
S9Q	7.2
L138F	5.59
F124M	1.7
Q2I	30
N22E	3.71
S87L	0.686
E131P	3.24
K126S	2.08
I172V	2.16
T39V	3.34
D153V	1970
S104N	1580
D159W	1400
L20V	4.43

Series 5
Organism: Saccharomyces cerevisiae
Effect on: pheromone growth arrest
Technique: yeast competitive growth sequencing
Form: peptide
Strain: no Cln2 overexpression
Setting: peptide tiling library
Direction: direction not given
Sequence	enrichment score
QYQVVDDIVSKLVFDF	0.0924
QNPCGSKACRRLFGPV	-0.274
SNFFDVIKQLFSDEKN	-0.175
NESHLDKEHDAVEVAD	0.251
VLPGGVPSPGASLTSM	-0.576
KVRRNLFNQELLSP	0.115
NEGVSNAVRRSLYIRD	-0.151
NSMKELNFSHLPSNSV	-0.25
AEHPKPSACRNLFGPV	0.23
ATNSSHTDAHEILVSD	0.463
ESSQLTVQAEFDMSAI	-0.0229
DVSERGYVILPNDYFE	0.07
EHCRVLFLDHVMYTIH	-0.103
DKYDEGLYRFNSLNDL	-0.321
ASVLSKPIFCFVKD	-0.0777
LENIEPLQVSFAVLSS	0.36

Series 6
Target: RNA binding protein fox-1 homolog 2, RRM domain, GST-SBP tag (RBFOX2, Homo sapiens, UniProt O43251-10, residues 100-194)
Technique: RNA Bind-n-Seq
Form: RNA
Medium: in vitro
Tested at: 365 nM
Setting: natural RNA segment, single round, ends assumed
Reference: no-protein control
Direction: higher = stronger binding
All sequences stand within: GGGAGUUCUACAGUCCGACGAUC … UGGAAUUCUCGGGUGCCAA
Target sequence (chain): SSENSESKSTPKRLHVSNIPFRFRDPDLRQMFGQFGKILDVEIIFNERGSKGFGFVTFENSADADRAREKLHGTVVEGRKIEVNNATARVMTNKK
Sequence	RBNS enrichment (R)
UUGCUGUUUUGUGUUUAAUUAGUAUAUUGUUCAUGCCUCUCUUCUGCAGUGUCUCAUCUCAUAGACUGUGAACCUGUAUAUUAUUCAAAUGGCUACAGAUAAUGCUCUUU	0.358
UACUGCUUGUGUCUCUUUGGUGCAAUAAUUAAAAUGGAAGGAGGAGCUGAACUGGGAACCCUACAGCCUAGUGAUUCUUCUACUUGCUCGCUAUAGCUUUCUGUUGGCAA	0.33
CCACUGCCCCUCCCUGCCAUCUUCUGCUACUUAGCUUGGGAGUUGAUGGUUGCAGAAGCCACACAGGGUUAAAGUAAAUUCUGUCUUUGCCCACCAGGGGAUCAAACCCC	0.369
UCCUUGAAGAGGUCCUUCACAUCCCUUGUAAGUUGGAUUCCUAGGUAUUUUAUUCUCUUUGAAGCAAUUGUGAAUGGGAGUUCACUCAUGAUUUGGCUCUCUGUUUGUCU	0.689
UUGGAGAAAUUUUAGACAGCAGCUCUGUGUUCUUUUUUUGCCGCAGCCAAUAAGAUAAUAGCAGAAUUAGCCAAUCCUAAAACCUUCUAAAGACGAUUUUUGAGCAUCCC	0.396
AAAAAAUAAUAGUUAUCAGUAGUGUCACUGGAAAGAAGAGAGGAGGGACAAAACUGAGCAGCAGAAUUCGUAUAGACAUUUACGUUUAAAUUCUAAAAGCCCAAUUGAGA	0.76
AAGCAGAACUCCAUCCUCACCUCUAUUUUGAGCUUAGUGCUUUAUUUCAGUAUGAGGAAAAACAACAACAAACCGAAGUGUGCUUUCCGUCCUUUCAGAGGACAACUGUC	0.31
UCCCAGGUAGCUUAGUGUUUAACAUCUCUCUCACCAUCCUGAUGCAGUAGCAUGGCUAUUGCUGAGGUUAUUUUACCUAAUAAUUAGAACUUUGUAUUUACAAAGCAAGU	0.769
GGUUGUUGAAAACUAAUUGUAUUAAAUGUCUUUUGAUAAGCCUUCUGCUCACACUUUUGUGACUGUCUGAAGUAUAUAGUUUGUGUAUAUUGAUAGAGCUCUUUUAUAAC	0.586
CUGUGGCCUCCUUGUGGUGGUCCCUCUUCCCACGUGCAGCCCUGUUGGGAAGAAAGGAAGAAAACAGGUCCCUCCAGGGGUGCUGCUGCCUAAGCCACCCACAUAAGUAC	0.368
UACCAGUCGUGAGUCUGCAGGCUCCAGUGUUCUGUAGUAGUGUUUAUGGGCCUUGGGAGUACUUCUCCCCUGCCCUGCCCCACUGUCCCCUUCCUGACAACUUGAGCCAG	0.331
AUCCCUCCUCUGCCAAUAUCGCUACAACUCCUGCCUCCAGCACUAGGCUAUAACUUUGGAGUGAUAAGUCCUAUGGCUUUCUACAGUAGAGAACCACCCAAGGGUGUCGA	0.49

Some of these lines once more (series 1):
Sequence	fitted relative affinity [z-score]
TCATGCCTATTTTTCCCACTGTGCTAG	0.448
TTAGGTTTCCTTTCCTTTTAGTGCTAG	11.3
AACGGTATCGACACTGGGGACGTGCTA	0.627
GAACTTCTGCATTACAGCTAGTGCTAG	0.109
TTAGGTTTCGGTATCAGTTAGTGCTAG	8.38
GACGCACTGAGACTGGAGACGTGCTAG	-0.323
GGGTGTGTGAGTGTGTGTGCGTGCTAG	-1.07
TCATGTATTTGTCCCTAACTGTGCTAG	0.621
GACGGACCGGGGTTTCGGGACGTGCTA	0.782
GACGATTCCAGTATCGAGACGTGCTAG	1.31
TTAGGACTGGGGTTTTGGTTAGTGCTA	-0.654
TTAGCACTGCTTATCCTTTAGTGCTAG	-0.106
GTGTTCTGGGCAGCAGAGGGGTGCTAG	-0.63
